Measurements of several laboratories.
T1: itself; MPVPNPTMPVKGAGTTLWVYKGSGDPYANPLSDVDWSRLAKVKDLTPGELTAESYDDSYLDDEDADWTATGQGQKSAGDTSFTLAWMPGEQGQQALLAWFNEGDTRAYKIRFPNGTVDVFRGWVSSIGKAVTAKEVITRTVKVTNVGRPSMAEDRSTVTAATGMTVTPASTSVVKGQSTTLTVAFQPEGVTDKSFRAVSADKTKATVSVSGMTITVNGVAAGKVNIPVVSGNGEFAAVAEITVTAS
T2: itself; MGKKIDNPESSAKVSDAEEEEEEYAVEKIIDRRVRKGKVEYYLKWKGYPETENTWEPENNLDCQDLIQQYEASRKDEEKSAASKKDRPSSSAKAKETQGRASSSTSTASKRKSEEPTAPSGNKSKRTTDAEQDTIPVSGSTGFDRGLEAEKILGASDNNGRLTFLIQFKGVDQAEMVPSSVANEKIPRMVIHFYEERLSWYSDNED
T3: itself; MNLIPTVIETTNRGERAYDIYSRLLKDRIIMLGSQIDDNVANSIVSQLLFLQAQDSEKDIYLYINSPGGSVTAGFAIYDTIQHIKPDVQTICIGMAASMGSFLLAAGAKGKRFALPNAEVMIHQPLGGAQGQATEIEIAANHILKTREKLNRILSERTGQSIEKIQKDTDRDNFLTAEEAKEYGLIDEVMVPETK
B1: Su(var)205 (Drosophila melanogaster, UniProt P05205); chain MGKKIDNPESSAKVSDAEEEEEEYAVEKIIDRRVRKGKVEYYLKWKGYPETENTWEPENNLDCQDLIQQYEASRKDEEKSAASKKDRPSSSAKAKETQGRASSSTSTASKRKSEEPTAPSGNKSKRTTDAEQDTIPVSGSTGFDRGLEAEKILGASDNNGRLTFLIQFKGVDQAEMVPSSVANEKIPRMVIHFYEERLSWYSDNED
B2: clpP 1-195 (Staphylococcus aureus, UniProt Q2G036); chain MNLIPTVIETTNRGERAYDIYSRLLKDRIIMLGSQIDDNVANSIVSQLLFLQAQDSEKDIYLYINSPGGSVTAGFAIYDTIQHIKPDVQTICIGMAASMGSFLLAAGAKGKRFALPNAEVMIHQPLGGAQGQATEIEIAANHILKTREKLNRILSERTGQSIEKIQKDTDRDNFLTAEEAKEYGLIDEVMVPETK

HBV core protein -10 to 154 C48A/C107A, intramolecular disulfide (hepatitis B virus) — subunits per oligomer (itself; AUC; oxidized, no DTT): 2
dye-decolorizing peroxidase hexamer — subunits per oligomer (itself; SEC): 6
porB (Neisseria gonorrhoeae) — subunits per oligomer (itself; cross-linking): 3
HBV core protein -10 to 149 C48A/C107A/G123A, intramolecular disulfide (hepatitis B virus) — subunits per oligomer (itself; AUC; reduced): 2
MAM fragment (Mycoplasma arthritidis) — subunits per oligomer (itself; crystal structure): 2
bltD (Enterococcus faecalis) — subunits per oligomer (itself; crystal structure; asymmetric unit dimer): 2
S HBsAg (hepatitis B virus) — subunits per oligomer (itself; non-reducing SDS-PAGE Western blot; Huh7, lysate): 2
gpV tail tube protein (bacteriophage lambda, UniProt P03733) — subunits per oligomer (T1, itself; cryo-EM): 6
dye-decolorizing peroxidase (Klebsiella pneumoniae) — subunits per oligomer (itself; SEC): 6
S HBsAg C147R (hepatitis B virus) — subunits per oligomer (itself; non-reducing SDS-PAGE Western blot; Huh7, lysate): 2
gor L416Q (Pseudomonas sp. JR-1) — subunits per oligomer (itself; SEC; pH 7.5, 4 °C): 2
UreE-F E94A (Klebsiella aerogenes) — subunits per oligomer (itself; SEC): 2
comFB (Vibrio cholerae) — subunits per oligomer (itself; mass photometry; without c-di-GMP): 4
MIF (Neospora caninum) — subunits per oligomer (itself; cross-linking): 3
cmeC (Campylobacter jejuni) — subunits per oligomer (itself; cross-linking): 3
S HBsAg C124R (hepatitis B virus) — subunits per oligomer (itself; non-reducing SDS-PAGE Western blot; Huh7, lysate): 2
UreE-F F222A (Klebsiella aerogenes) — subunits per oligomer (itself; SEC): 2
EspD fragment (Escherichia coli) — subunits per oligomer (itself; SEC): 2
UreE-F E215A (Klebsiella aerogenes) — subunits per oligomer (itself; SEC): 2
B1 (Su(var)205) — subunits per oligomer (T2, itself; SEC-SAXS): 2
GluA4/TARPγ2 (Rattus norvegicus/Homo sapiens) — subunits per oligomer (itself; cryo-EM): 4
gor F443E (Pseudomonas sp. JR-1) — subunits per oligomer (itself; SEC; pH 7.5, 4 °C): 2
FraB full length, His6-SUMO fusion (Salmonella) — subunits per oligomer (itself; native MS): 2
UreE-F S224A (Klebsiella aerogenes) — subunits per oligomer (itself; SEC): 2
Dengue envelope protein soluble ectodomain, no stem/transmembrane (Dengue virus serotype 2) — subunits per oligomer (itself; sucrose gradient sedimentation): 2
UreE-F K165A (Klebsiella aerogenes) — subunits per oligomer (itself; SEC): 2
Aca11 fragment (Streptococcus sp) — subunits per oligomer (itself; SEC): 2
yjgK fragment (Salmonella enterica serovar Typhimurium) — subunits per oligomer (itself; SEC): 2
HBV core protein -10 to 149 C48A/C107A, intramolecular disulfide (hepatitis B virus) — subunits per oligomer (itself; AUC; oxidized, no DTT): 2
Mvp/Tep1/Parp4 half vault (Rattus norvegicus) — subunits per oligomer (itself; scanning transmission EM): 2
encapsulin (Klebsiella pneumoniae) — subunits per oligomer (itself; cryo-EM): 60
Ec78 retron ABC ATPase Q361L (Escherichia coli) — subunits per oligomer (itself; cryo-EM): 4
UreE-F E30A (Klebsiella aerogenes) — subunits per oligomer (itself; SEC): 2
insulin human — fold change (item: NAV3 mRNA; EcoHIV-infected mouse, brain; i.p., dose not given; relative to: PBS): 1.08
gor F443L (Pseudomonas sp. JR-1) — subunits per oligomer (itself; SEC; pH 7.5, 4 °C): 2
B2 (clpP 1-195) — subunits per oligomer (T3, itself; crystal structure): 14
UreE-F Y23A (Klebsiella aerogenes) — subunits per oligomer (itself; SEC): 2
PCNA trimer (Candida albicans) — subunits per oligomer (itself; SEC): 3
gor L416A (Pseudomonas sp. JR-1) — subunits per oligomer (itself; SEC; pH 7.5, 4 °C): 2
CapV apo, wild type (Acinetobacter baumannii) — subunits per oligomer (itself; cryo-EM): 4
